Published values collected from several papers.
A part holds a random share of what one study measured. Positions count from the first letter of the parent shown.
UniProt P35367, sequence (whole entry, looked up): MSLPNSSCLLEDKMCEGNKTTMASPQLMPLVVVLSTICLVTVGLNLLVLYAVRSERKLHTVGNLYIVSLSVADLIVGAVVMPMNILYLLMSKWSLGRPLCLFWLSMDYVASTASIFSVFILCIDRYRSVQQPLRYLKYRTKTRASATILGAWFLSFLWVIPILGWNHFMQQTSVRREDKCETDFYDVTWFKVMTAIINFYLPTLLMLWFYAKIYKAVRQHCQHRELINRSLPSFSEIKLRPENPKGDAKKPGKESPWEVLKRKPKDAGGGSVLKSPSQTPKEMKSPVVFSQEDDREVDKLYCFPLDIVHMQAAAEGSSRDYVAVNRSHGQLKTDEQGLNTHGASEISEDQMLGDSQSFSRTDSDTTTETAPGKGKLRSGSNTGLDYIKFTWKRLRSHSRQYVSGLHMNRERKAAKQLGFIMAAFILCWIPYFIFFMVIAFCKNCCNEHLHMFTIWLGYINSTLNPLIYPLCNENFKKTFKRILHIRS

Block 1
Target: POU domain, class 5, transcription factor 1, POU domain (Pou5f1, Mus musculus, UniProt P20263, residues 131-289)
UniProt P20263, sequence (131-289, looked up): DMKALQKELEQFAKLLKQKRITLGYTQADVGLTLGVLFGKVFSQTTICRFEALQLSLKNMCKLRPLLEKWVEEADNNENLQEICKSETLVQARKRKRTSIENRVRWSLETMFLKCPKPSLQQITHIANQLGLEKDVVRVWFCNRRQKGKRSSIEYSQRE
Method: Spec-seq
Form: double-stranded DNA, one strand shown
Medium: in vitro
Tested at: not given
Notes: whole probe, mean of replicates
Reference: not given
Reading: lower = stronger binding
Measurement: relative binding energy
All sequences stand within: GAGTCGTCTCGTCAGCAC … CCGTAGAGCACTCAGGTC
ATCATCAT: -0.155 ln ratio
ATGCCATC: 0.632 ln ratio
ATGCGGGT: 0.455 ln ratio
ATGCTTGA: 0.431 ln ratio
TTGCTAAT: -1.56 ln ratio
ATGCGTAC: 0.121 ln ratio
ATCCCTAT: 0.543 ln ratio
CTGGTAAT: 0.767 ln ratio

Block 2
Target: ATF3, bZIP domain (human)
Method: DHFR protein complementation
Medium: yeast
Notes: single substitutions, most at no-binding floor
Reference: wild-type JUN-FOS pair
Reading: higher = stronger binding
Measurement: binding fitness
Starting sequence: JUN, bZIP domain (human); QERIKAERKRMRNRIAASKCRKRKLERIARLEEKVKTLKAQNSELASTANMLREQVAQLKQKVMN; partner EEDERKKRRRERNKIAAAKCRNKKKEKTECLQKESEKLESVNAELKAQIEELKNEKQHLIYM
E32F: -0.747 natural log
E33I: -0.251 natural log
M51S: -0.0682 natural log
K39A: -0.372 natural log
A57V: -0.312 natural log
E32C: -0.554 natural log
M51P: -1.39 natural log
S47P: -1.24 natural log

Block 3
Target: Centromere-binding protein 1, full length, His-tagged (CBF1, Saccharomyces cerevisiae, UniProt P17106, residues 1-351)
UniProt P17106, sequence (whole entry, looked up): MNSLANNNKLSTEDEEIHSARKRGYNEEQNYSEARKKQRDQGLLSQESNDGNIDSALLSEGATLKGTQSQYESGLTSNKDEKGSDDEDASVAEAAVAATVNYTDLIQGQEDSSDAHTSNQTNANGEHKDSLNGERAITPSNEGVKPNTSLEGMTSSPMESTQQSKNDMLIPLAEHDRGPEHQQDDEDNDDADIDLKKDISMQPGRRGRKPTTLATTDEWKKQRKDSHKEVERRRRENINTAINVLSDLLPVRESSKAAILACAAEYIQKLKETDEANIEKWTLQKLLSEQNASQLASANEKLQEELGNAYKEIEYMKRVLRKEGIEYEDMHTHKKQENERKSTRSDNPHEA
Method: competition protein-binding microarray
Form: double-stranded DNA, one strand shown
Medium: in vitro
Tested at: 2 µM
Notes: whole 60-bp probe, lowest competitor level
Together with: Pho4 competitor, 0.05 µM
Reading: higher = stronger binding
Measurement: fluorescence intensity
TTACAATAATAAAAGCACGTGACAAAGTCCCTAGATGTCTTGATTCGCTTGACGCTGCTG: 8690 a.u.
TATTCAAGATCCTGCAACGTGCCAGGGACTCTCAATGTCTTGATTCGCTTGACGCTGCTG: 100 a.u.
CACCATTTGATGTTGCACATGCGTTCGATATACCCCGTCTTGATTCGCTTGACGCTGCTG: 125 a.u.
GTCTTGTCTCATTTTCACGTGCACTTCCCCACTTCAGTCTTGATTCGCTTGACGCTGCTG: 864 a.u.
ATTTCGCAAGGAGCGGGCGTGCGATGTTAACGTCAAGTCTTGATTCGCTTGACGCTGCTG: 63.7 a.u.
TTGTTTTATTGCCTTCACGTTTATTAATGCTCAAACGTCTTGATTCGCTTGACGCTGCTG: 125 a.u.
TTATGTTCAACACGACATCCTAACAAATACTACAGCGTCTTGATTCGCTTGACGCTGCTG: 91 a.u.
GTCTTGTCTCATTGTGATGTGGGTGTCCCCACTTCAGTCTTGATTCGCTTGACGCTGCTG: 78.3 a.u.

Further values, each from its own experiment
Nc1nc(NCc2ccccc2)nc(-c2cccc(CO)c2)n1 — inhibition (Histamine H1 receptor (HRH1, Homo sapiens, UniProt P35367); ligand displacement; 10 µM): 4.01%

For quick reference, copied from above (block 3):
CACCATTTGATGTTGCACATGCGTTCGATATACCCCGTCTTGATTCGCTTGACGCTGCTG: 125 a.u.
TTACAATAATAAAAGCACGTGACAAAGTCCCTAGATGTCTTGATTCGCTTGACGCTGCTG: 8690 a.u.
TATTCAAGATCCTGCAACGTGCCAGGGACTCTCAATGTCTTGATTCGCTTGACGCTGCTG: 100 a.u.
GTCTTGTCTCATTTTCACGTGCACTTCCCCACTTCAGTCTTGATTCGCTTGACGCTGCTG: 864 a.u.
